Assay results gathered from unrelated publications.
Protocols differ between the studies behind these lines. ± gives the spread as reported.

SMILES	organism	test	test system	conditions	how to read	quantity	result
CC(C)[C@H](NC(=O)N[C@@H](CCCCN)C(=O)N[C@@H](CNC(=O)CCCCCCCCCCS)C(=O)NCCCNC(C[C@H]1O[C@@H](n2ccc(=O)[nH]c2=O)[C@H](O)[C@@H]1O)C(=O)O)C(=O)O (stereo partly drawn)	Escherichia coli	growth	DH5alpha			IC50	> 100 µg/mL
COC(=O)[C@@H]1C(c2nc3ccccc3s2)=Cc2cc3c(cc2[C@H]1c1cc(OC)c(OC)c(OC)c1)OCO3	Leishmania infantum	Alamar Blue	HepG2		relative to: CC50 HepG2 over EC50 amastigotes	selectivity index	0.5
O=[N+]([O-])c1cc(CN2CCN(c3ccc(Cl)cc3)CC2)ccc1Cl	Saccharomyces cerevisiae	cell growth, doubling time	wild type			IC50	> 200 µM
COc1cc([C@@H]2c3cc4c(cc3[C@@H](C=C(C)C)[C@H]3COC(=O)[C@H]23)OCO4)cc(OC)c1OC	Leishmania		mouse splenocytes		relative to: CC50 over amastigote EC50	selectivity index	0.2
COc1ccc2c(c1)C1CC1(C(=O)N1C3CNCC1C3)Cn1c-2c(C2CCCCC2)c2ccc(C(=O)NS(=O)(=O)N(C)C)cc21 (stereo not drawn)	hepatitis C virus	viral replication, FRET	Huh-7, genotype 1b Con1 replicon			EC50	0.08 µM
COC(=O)[C@@H]1C(C=Nc2ccccc2O)=Cc2cc3c(cc2[C@H]1c1cc(OC)c(OC)c(OC)c1)OCO3	Leishmania infantum	iRFP fluorescence	mouse splenocytes infected, amastigote, iRFP, ex vivo splenic explant	48 h		EC50	9.4 ± 0.7 µM
O=[N+]([O-])c1cc(CN2CCN(c3ccccc3F)CC2)ccc1Cl	Saccharomyces cerevisiae	cell growth, doubling time	SEC14 -136 allele	Sec14 reduced ~7-fold		IC50	8.1 ± 0.8 µM
CN1CCc2cc3c(c4c2C1Cc1ccccc1-4)OCO3 (stereo not drawn)	Schistosoma mansoni	5-HT evoked movement, antagonist	adult worms	1 h, with: serotonin 200 µM		IC50	1 to 10 µM
CCOC(=O)C1=C(C)NC2=C(C(=O)CC(C)(C)C2)C1c1ccc(OCC(=O)NN=Cc2cccc(C=O)c2)cc1OCC(=O)NN=Cc1cccc(C=O)c1 (stereo not drawn)	Proteus vulgaris		FMC II	concentration not given, 24 h		inhibition zone diameter	2.6 ± 0.3 mm
CC(F)(F)c1nc2nc(CO)cc(Nc3ccc(C(F)(F)F)nc3)n2n1	Plasmodium falciparum	blood stage growth	3D7, Albumax medium	72 h		EC50	0.62 µM
O=S(=O)(c1ccc(Cl)cc1)N1CCN(c2ccc(F)cc2)CC1	Saccharomyces cerevisiae	cell growth, doubling time	wild type			IC50	> 200 µM
COC(=O)[C@@H]1C(c2nc3cc(Cl)ccc3o2)=Cc2cc3c(cc2[C@H]1c1cc(OC)c(OC)c(OC)c1)OCO3	Leishmania infantum	Alamar Blue	HepG2		relative to: CC50 HepG2 over EC50 amastigotes	selectivity index	3.9

Some of these lines once more:
SMILES	organism	test	test system	conditions	how to read	quantity	result
CN1CCc2cc3c(c4c2C1Cc1ccccc1-4)OCO3 (stereo not drawn)	Schistosoma mansoni	5-HT evoked movement, antagonist	adult worms	1 h, with: serotonin 200 µM		IC50	1 to 10 µM
CCOC(=O)C1=C(C)NC2=C(C(=O)CC(C)(C)C2)C1c1ccc(OCC(=O)NN=Cc2cccc(C=O)c2)cc1OCC(=O)NN=Cc1cccc(C=O)c1 (stereo not drawn)	Proteus vulgaris		FMC II	concentration not given, 24 h		inhibition zone diameter	2.6 ± 0.3 mm
